Experimental data pooled from the literature.
Lines come from different studies, so protocols differ. Values joined by “and” are separate records of one study, mostly repeats; a detail may differ. ± marks the error that the study gave.
Chain of UniProt P05771 (whole entry, looked up): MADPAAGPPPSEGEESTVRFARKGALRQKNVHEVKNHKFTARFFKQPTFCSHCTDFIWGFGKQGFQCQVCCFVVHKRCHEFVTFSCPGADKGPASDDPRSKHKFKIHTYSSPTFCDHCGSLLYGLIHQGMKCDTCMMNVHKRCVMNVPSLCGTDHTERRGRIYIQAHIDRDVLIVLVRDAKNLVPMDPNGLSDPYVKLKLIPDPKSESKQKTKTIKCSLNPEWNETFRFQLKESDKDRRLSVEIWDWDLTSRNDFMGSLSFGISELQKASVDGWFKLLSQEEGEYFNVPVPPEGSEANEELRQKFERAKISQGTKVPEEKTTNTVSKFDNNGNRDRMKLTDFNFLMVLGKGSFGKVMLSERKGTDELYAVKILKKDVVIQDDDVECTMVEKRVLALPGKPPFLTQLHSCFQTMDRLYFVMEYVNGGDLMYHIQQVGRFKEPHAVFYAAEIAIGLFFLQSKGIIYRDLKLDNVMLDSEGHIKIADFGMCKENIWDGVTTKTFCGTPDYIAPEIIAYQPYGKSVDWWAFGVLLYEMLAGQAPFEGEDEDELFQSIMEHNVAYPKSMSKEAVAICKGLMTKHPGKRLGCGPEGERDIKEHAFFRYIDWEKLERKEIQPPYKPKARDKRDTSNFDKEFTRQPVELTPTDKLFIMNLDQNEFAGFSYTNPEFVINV
Chain of UniProt P10635 (whole entry, looked up): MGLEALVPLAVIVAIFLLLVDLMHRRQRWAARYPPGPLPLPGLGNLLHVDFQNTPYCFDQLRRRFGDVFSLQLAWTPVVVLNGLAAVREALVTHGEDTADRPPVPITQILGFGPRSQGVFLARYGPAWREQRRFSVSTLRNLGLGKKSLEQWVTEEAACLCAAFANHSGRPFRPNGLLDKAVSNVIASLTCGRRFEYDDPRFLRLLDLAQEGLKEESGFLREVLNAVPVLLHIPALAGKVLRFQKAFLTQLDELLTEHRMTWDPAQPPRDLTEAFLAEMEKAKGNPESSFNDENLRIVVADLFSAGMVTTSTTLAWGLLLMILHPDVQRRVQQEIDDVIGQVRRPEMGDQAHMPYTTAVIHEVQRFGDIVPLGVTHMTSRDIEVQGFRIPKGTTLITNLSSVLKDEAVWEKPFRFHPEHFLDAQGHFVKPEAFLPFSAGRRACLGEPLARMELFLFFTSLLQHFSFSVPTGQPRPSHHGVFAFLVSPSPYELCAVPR

`O=C(Nc1ccccc1)c1cccc([C@@H]2C[C@H]2NC2CCC2)c1` (racemic) gave a relative growth of 105% and 90.3% and 97.2% (SET-2; cell growth, CellTiter-Glo; 1 µM, 7 d; relative to: vehicle).
`Cc1nn(-c2cccc(N)c2)c(=O)c2cnc(Nc3ccc(N4CCNCC4)cc3)nc12` gave an IC50 of 2730 nM (PRKCB (Homo sapiens, UniProt P05771); kinase activity, inhibitor, SelectScreen kinase profiling).
`Cc1ncsc1-c1ccc(C(C)NC(=O)C2CC(O)CN2C(=O)C(NC(=O)CCCCCCCCCCN2CCCC(Nc3ncc(Cl)c(Nc4ccccc4S(=O)(=O)C(C)C)n3)C2)C(C)(C)C)cc1` (stereo not shown): “log2 fold change” -1.94 (22Rv1; RNA-seq, item: TMEM121 mRNA; concentration not given; relative to: DMSO).
With `COc1ccccc1C(=O)NCC(=O)Nc1ccc2[nH]nc(/C=C/c3ccccn3)c2c1` the GI50 was 730 nM (Ba/F3 TEL-VEGFR2; cell growth, CCK-8).
`COc1cc(N2CCN(C(=O)C3CCCN3)CC2)ccc1Nc1ncc(Cl)c(Nc2ccccc2P(C)(C)=O)n1` (stereo not shown): “late apoptotic cells” 3.4% (NCI-H3122; annexin V/PI flow cytometry; 500 nM, 24 h, mean of replicates).
Under “log2 fold change”, `COC1CN([C@H]2CC[C@H]([C@@]3(C)Oc4c(Cl)cc(C(=O)NCc5c(SC)cc(C)[nH]c5=O)c(C)c4O3)CC2)C1` is recorded as 0.526 (RNA-seq, item: SLC41A2 mouse homolog; mouse, HT-1376 xenograft, whole blood; dose not given; relative to: vehicle).
`O=C(N1CCCC1)n1cc(-c2ccc(-c3ccccc3)cc2)nn1` gave an SILAC ratio of 1.08 (mouse T cells; N-terminal labelling proteomics, item: SERF2 N-terminal peptides; 0.001 µM, 6 h; relative to: DMSO).
`CCN(CC)CC(=O)Nc1cccc(-n2cc(-c3ccc4ccc(-c5cn(-c6cccc(NC(=O)CN(CC)CC)c6)nn5)cc4c3)nn2)c1` has a fold regulation of -1.02 fold (RCC4; PCR array, item: TGFA; 5 x IC50, 2 h, normoxia; relative to: untreated).
The maximal inhibition of `O=C(NCc1cc(F)cc(F)c1)[C@@]1(O)CCN(c2ccc3[nH]ccc3c2)C1=O` is reported as 52% (CNS PDX-derived tumour cells; colony formation, soft agar clonogenic; concentration not given, 8-10 days).
With `C=C(NC(=O)c1csc(-c2nc3c(cc2O)-c2nc(cs2)C(=O)NC(C(C)O)C(=O)NC(=C(C)OC)c2nc(cs2)C(=O)NC2c4nc(cs4)C(=O)NC(COC(=O)c4c5c6c(cccc6n4O)COC(=O)C(OC4CC(C)(O)C(N(C)C)C(C)O4)C2OC5)c2nc-3cs2)n1)C(N)=O` (stereo not shown) the AUC(0-t) was 224 ng·h/mL (ICR mice, Streptococcus pneumoniae ATCC 49169 infected, immunocompromised, blood; intravenous, 4 mg/kg/day twice daily).
The metabolite level of `COC(=O)c1cc(NC2=NC(=O)C(=Cc3ccc(C)cc3)S2)ccc1OC(C)=O` is reported as 0.34 fold change (MCF7; GC-MS, item: Dl-Ornithine; 1 µM; relative to: DMSO).
`COCCCCCNc1nc(NCCCCCCN(C)C)c2cc(NC(=O)/C=C/CN(C)C)ccc2n1` gave a viability of 0.88 and 1 (MCF7; CellTiter-Glo; 25 µM, 24 h, unit not given; relative to: DMSO-treated cells).
`O=C(Nc1cnccc1-c1ccc([18F])cc1)c1ccnc(NC(=O)C2CC2)c1` gave an SUV of 0.41 (FVB/NJ mice (both sexes), lung; intravenous, dose not given, 120 min, together with: tariquidar 15 mg/kg i.v. pre-dose).
For `Cc1nc(N)nc2c1C(=O)N[C@@H](c1ccc(F)cc1-c1cccc(O[11CH3])n1)C2`, the tracer uptake was 1.9 ± 0.2 %ID (ex vivo biodistribution; mice, U87 subcutaneous xenograft, lungs; 60 min post-injection, baseline, vehicle pre-treatment).
For `CNC(NN=Cc1ccc([N+](=O)[O-])o1)=[S+][Au-][Cl]`, the inhibition was 58% (CAKI-1; cell invasion, 3D Transwell invasion; IC20, 24 h; relative to: untreated).
For `C=CC(=O)Nc1cccc(Cn2ncc3cnc(Nc4cnn(CCOC)c4)nc32)c1`, “percent of control” read 78% (MAP4K4 human; binding, KINOMEscan; 100 nM; lower = stronger binding).
For `CCN(CC)CC#CCNc1ccnc2cc(Cl)ccc12`, the revertants was 2 revertants/well and 6 revertants/well (Salmonella typhimurium; mini-Ames test; TA1535; 125.0 µg/well, with rat liver S9).
With `CCN(C(=O)c1cc(F)ccc1Oc1nncnc1N1CCC2(C1)CN([C@H](CCCN(C)CCOC)C(C)C)C2)C(C)C` the GI50 was > 10000 nM (MDA-MB-436; cell growth or viability; 72 h).
`CC(C)C[C@H](NC(=O)[C@@H]1CCCN1C(=O)[C@H](CCCCN)NC(=O)[C@@H](N)CO)C(=O)N1CCC[C@H]1C(=O)N[C@@H](CCC(=O)O)C(=O)N[C@H](C(=O)N[C@H](C(=O)N[C@@H](CC(=O)O)C(=O)N[C@@H](CCC(=O)O)C(=O)N[C@@H](Cc1ccc(O)cc1)C(=O)NCC(=O)NCCOCCOCCOCCOCCOCCOCCOCCOCCOCCOCCOCCOCCC(=O)N[C@@H](CCCCNC(=O)CC[C@H](C(=O)O)N1CCN(CC(=O)O)CCN(CC(=O)O)CC1)C(=O)N1CCN(CCCN(C)c2ccc3nccc(C(=O)NCC(=O)N4CC(F)(F)C[C@H]4C#N)c3c2)CC1)[C@@H](C)O)C(C)C` gave a Kd of 18.8 nM (HT-1080 expressing hFAP; binding, flow cytometry; 4 °C, apparent).
For `Cn1ncc2cc(-c3cncc(Cl)c3N3CCC4(CCNC4=O)CC3)ccc21`, “log2 fold change” read 1.15 (LS174T; gene expression, microarray, item: PPP1R3C mRNA; concentration not given, 4 h; relative to: untreated cells).
With `Fc1ccc(Nc2nc(NC3CCCCC3)c3cc(Br)ccc3n2)cc1F` the Imax was 1% (transfected HEK293 cells; β-arrestin2 recruitment, negative allosteric modulator, BRET; 30 min pre-incubation, β1AR ECL1 chimera, together with: isoproterenol 1 µM; relative to: isoproterenol alone).
`O=C1C2CC3CC1CC(C(=O)N1CCN(c4ccc([N+](=O)[O-])c5ncccc45)CC1)(C3)C2` — result for “revertant fold increase”: 0.7 (Escherichia coli; Ames test; WP2 uvrA pKM101; 0.13 µg/well, without S9; relative to: vehicle).
With `CC(C)C[C@H](NC(=O)[C@H](Cc1ccc(O)cc1)NC(=O)[C@@H](CCCNC(=N)N)NC(=O)[C@@H](CO)NC(=O)[C@H](Cc1ccccc1)NC(=O)[C@H](CC1CCCCC1)NC(=O)[C@H](CC(=O)O)NC(=O)CN1CCN(CC(=O)O)CCN(CC(=O)O)CCN(CC(=O)O)CC1)C(=O)N[C@@H](Cc1c[nH]c2ccccc12)C(=O)N[C@@H](CO)C(=O)O` [copper-64 labelled] the activity concentration was 5630 Bq/mL and 7550 Bq/mL and 7380 Bq/mL and 6180 Bq/mL and 7230 Bq/mL and 4570 Bq/mL (human, pancreas; concentration not given, 1 h).
With `Nc1ncc(-c2cc(-c3cnn(CC(F)(F)F)c3)ncc2F)nc1C(=O)NC1CNCC(F)C1` (stereo not shown) the remaining binding was 24% (CDK7; KINOMEscan; 1 µM; relative to: DMSO control).
`CCC(=CCc1c(O)cc2c(c1O)C(=O)CC(c1ccc(O)cc1)O2)CC` (stereo not shown): “cells in G0/G1 phase” 42.8% (HeLa; flow cytometry, PI staining; 12 µM, 48 h).
`CCCCCCc1cccc(C(O)CC(CO)NC(=O)CCCCCCCCCCNC(C)=O)c1` (stereo not shown) has an SM/Cer ratio of 18 ,1 (HeLa; HPLC-MS-MS lipidomics, item: C18 SM and ceramide; 1 µM, 24 h; relative to: SM over Cer).
`CNS(=O)(=O)Nc1nccc(Cc2c(C)c3ccc(Oc4ncccc4F)cc3oc2=O)c1F` gave an IC50 of > 1000 nM (NCI-H28; cell viability; 7 days).
The maximum inhibition of `C[C@@H]1Cc2c([nH]c3ccccc23)[C@@H](c2c(F)cc(/C=C/C(=O)O)cc2F)N1C12CC(C1)C2` is reported as 73.5% (MCF7/luciferase, wild type; cell proliferation).
With `CC(C)c1ccc(N(C)c2ccc3c(c2)OCC[C@H]3CNc2cnccc2C(=O)O)cc1` the IC50 was 26.2 nM (GP2d; cell viability, CellTiter-Glo; 7 days).
For `Cc1cc(Cl)cc(-c2ccnc3cc(CN4C(=O)C5C(C4=O)C5(C)C)sc23)c1C[C@@H]1CNCCO1` (stereo partly shown), “G2/M phase cells” read 13% (CHP-212 resistant; PI flow cytometry; 1 µM, 24 h).
`C/C(=N\Nc1ncnc2sc3c(c12)CCCC3)c1cc(O)ccc1O` — result for cell proliferation: “decreased” (HCT-116 overexpressing RelB-G200L; CCK-8; concentration not given).
For `CN1CCCNC(=O)c2cccc(c2)C(=O)NCCCN(C)CCCNc2cccc3c2C(=O)c2cccc(c2C3=O)NCCC1`, “log2 fold change” read 1.07 (SAS; RNA-Seq, item: MUTYH mRNA; 1 µM, 6 h; relative to: untreated cells).
The viability of `CCCCCCCCN(CCC(=O)Nc1ccccc1)C(=O)c1cc[nH]c1` is reported as 53 ± 13% (progeroid mouse fibroblasts, Lmna G609G/G609G; MTT; 2 µM, 72 h; relative to: vehicle-treated wild type).
Under “mean neuron degeneration”, `C=CC(=O)N1[C@@H](c2ccc3c(c2)OCO3)c2[nH]c3ccccc3c2C[C@H]1C(=O)NC1CC1` is recorded as 88.2% (rat DRG neurons; 0.04115 µM, 48 h, together with: vincristine 40 nM).
`CNC(=O)C1CCCN(C(=O)C2CC3CCC2N3C(=O)[C@@H]2C[C@@H](O)CN2C(=O)NCc2cccc(Cl)c2F)C1` (mixture of isomers) gave a remaining activity of 102% (Cytochrome P450 2D6 (CYP2D6, Homo sapiens, UniProt P10635); enzyme activity, inhibitor, time-dependent inhibition; 0.0686 µM, preincubated with NADPH; relative to: negative control).
The GI50 of `O=C(Nc1ccc(Sc2ccc3c(/C=C/c4ccccn4)n[nH]c3c2)cc1)c1ccco1` is reported as 500 nM (Ba/F3 TEL-VEGFR2; cell growth, CCK-8).
`Nc1nnc(-c2ccccc2O)cc1N1CC2CCC(C1)N2c1ccnc(C#CCCN2CCCCCC2)c1` — result for “log2 fold change”: -0.29 (SW1573; ubiquitination, di-Gly remnant proteomics, item: YWHAB K11 ubiquitin site; 100 nM, 30 min; relative to: DMSO).
Under “reporter protein carboxylation”, `O=C1C2=C(NC(c3ccccc3)C(c3ccccc3)N2)C(=O)c2ccccc21` (stereo not shown) is recorded as < 5% (γ-carboxylation reporter cells; vitamin K-dependent γ-carboxylation; 10 µM, 24 h, together with: vitamin K 5 µM; relative to: DMSO).
With `O=C(Nc1ccc(Sc2ccc3c(/C=C/c4ccccn4)n[nH]c3c2)cc1)Nc1ccc(F)c(F)c1` the GI50 was 3190 nM (Ba/F3 TEL-VEGFR3; cell growth, CCK-8).
For `Cc1cc(-c2ccc(NC(=O)CC[C@H](NC(=O)CN3CCN(CC(=O)O)CCN(CC(=O)O)CCN(CC(=O)O)CC3)C(=O)NCC(=O)N[C@@H](CC(N)=O)C(=O)N[C@H](C(=O)N[C@H](C(=O)N[C@@H](CCCNC(=N)N)C(=O)N[C@@H](CCC(N)=O)C(=O)O)C(C)C)C(C)C)c(C)c2)ccc1/N=N/c1ccc2c(S(=O)(=O)O)cc(S(=O)(=O)O)c(N)c2c1O` [copper-64 labelled], the tissue uptake was 6.7 ± 2.9 %ID/g (nude mouse, 143B xenograft, tumour; intravenous, 48 h).

Excerpt of the above:
Under “mean neuron degeneration”, `C=CC(=O)N1[C@@H](c2ccc3c(c2)OCO3)c2[nH]c3ccccc3c2C[C@H]1C(=O)NC1CC1` is recorded as 88.2% (rat DRG neurons; 0.04115 µM, 48 h, together with: vincristine 40 nM).
`COCCCCCNc1nc(NCCCCCCN(C)C)c2cc(NC(=O)/C=C/CN(C)C)ccc2n1` gave a viability of 0.88 and 1 (MCF7; CellTiter-Glo; 25 µM, 24 h, unit not given; relative to: DMSO-treated cells).
For `CCN(CC)CC#CCNc1ccnc2cc(Cl)ccc12`, the revertants was 2 revertants/well and 6 revertants/well (Salmonella typhimurium; mini-Ames test; TA1535; 125.0 µg/well, with rat liver S9).
`O=C(N1CCCC1)n1cc(-c2ccc(-c3ccccc3)cc2)nn1` gave an SILAC ratio of 1.08 (mouse T cells; N-terminal labelling proteomics, item: SERF2 N-terminal peptides; 0.001 µM, 6 h; relative to: DMSO).
`CCC(=CCc1c(O)cc2c(c1O)C(=O)CC(c1ccc(O)cc1)O2)CC` (stereo not shown): “cells in G0/G1 phase” 42.8% (HeLa; flow cytometry, PI staining; 12 µM, 48 h).
